# Results collected from several papers.
Compound,technique,sample,time,pH,temperature,setting,solubility
Cc1cc(C)c(C#N)c(SCC(=O)c2ccc(Cl)cc2)n1,,aqueous buffer,,pH 7.4,25 °C,,< 5 µM
Cc1[nH]c(C(=O)Nc2ccc(-c3n[nH]c(=O)o3)cc2N2CCNCC2)c(Cl)c1Cl.Cl,,PBS,24 h,pH 7.4,25 °C,,< 1 µg/mL
Cc1cc(C)c(C#N)c(OCC(=O)c2ccccc2)n1,,aqueous buffer,,pH 7.4,25 °C,,34 µM
Cc1cc(/C=C/C#N)cc(C)c1Oc1nc(NC2CCN(Cc3ccc(P(C)(C)=O)cc3)CC2)nc2ccsc12,,water,,pH 7,,,36.4 µg/mL
Cc1cc(C)c(C#N)c(SCC(=O)c2ccc(Cl)cc2Cl)n1,,aqueous buffer,,pH 7.4,25 °C,,< 5 µM
COCc1nn(Cc2ccc(Cn3ccccc3=O)cc2)cc1C(=O)NCc1nccc(OC)c1F,,FaSSIF,4 h,pH 6.5,,,110 µg/mL
CCCN(Cc1ccccc1OC)C(=O)c1cc2c(s1)CCCC2,,aqueous buffer,12 h,pH 7.4,37 °C,,5390 µg/mL
COC(=O)N[C@H](C(=O)N[C@@H](Cc1ccccc1)[C@@H](O)CN(Cc1ccc(-c2ccccn2)cc1)NC(=O)[C@@H](NC(=O)OC)C(C)(C)C)C(C)(C)C,,aqueous buffer,,pH 7.4,,,2.3 µM
COc1cc(Cc2cnc(N)nc2N)cc(OC)c1OC,shake flask,water,,,,,488 µg/mL
CCCN(Cc1ccccc1OC)C(=O)c1cccc(Br)c1F,,aqueous buffer,12 h,pH 7.4,37 °C,,28 µg/mL
CCc1ccc(C(=O)CSc2nc(C)cc(C)c2C#N)cc1,,aqueous buffer,,pH 7.4,25 °C,,< 5 µM
Cc1[nH]c(C(=O)Nc2ccc(-c3n[nH]c(=O)o3)cc2N2CCOC(C)C2)c(Cl)c1Cl (stereo not drawn),,PBS,24 h,pH 7.4,25 °C,,< 1 µg/mL
CC(/C=C/C=C(\C)C(=O)O)=C\C=C\C=C(C)\C=C\C=C(/C)C(=O)O,shake flask,PBS,1 h,pH 7.4,37 °C,,13.9 µg/mL
COc1ccc(C(=O)CSc2nc(C)cc(C)c2C#N)cc1,,aqueous buffer,,pH 7.4,25 °C,,< 5 µM
CCCN(Cc1ccccc1OC)C(=O)c1cc(F)cc(Br)c1,,aqueous buffer,12 h,pH 7.4,37 °C,,787 µg/mL
COc1cc(CO)c(-c2ccc3c(c2O)[C@@H](C)N[C@H](C)C3)c2cccc(O)c12,shake flask,PBS,24 h,pH 6.5,25 °C,,200 µM
CN(C)C(=O)c1cc2cnc(Nc3ccc(N4CCNCC4)cn3)nc2n1C1CCCC1,,aqueous buffer,24 h,pH 7.5,37 °C,,300 µg/mL
CCOC(=O)c1cn(CC)c2cc(N3CCC(C)CC3)c(F)cc2c1=O,shake flask,PBS,2 h,pH 7.4,25 °C,,12 µM
O=c1[nH]cc(F)c(=O)[nH]1,shake flask,simulated gastric fluid,,pH 1.2,,acidic,11700 µg/mL
CCCN(Cc1ccccc1OC)C(=O)c1ccc(Br)c(Br)c1,,aqueous buffer,12 h,pH 7.4,37 °C,,2590 µg/mL
COC(=O)N[C@H](C(=O)N1CCC[C@H]1c1nc(-c2ccc(-c3ccc(-c4c[nH]c([C@@H]5CCCN5C(=O)[C@@H](NC(=O)OC)C(C)C)n4)cc3)cc2)c[nH]1)C(C)C,,aqueous buffer,,pH 7.4,,,0.5 µM
Cc1cc(C)c(C#N)c(SCC(=O)c2ccccc2)n1,,aqueous buffer,,pH 7.4,25 °C,,< 5 µM
CCCCN(Cc1ccccc1OC)C(=O)c1cc(C)c(C)s1,,aqueous buffer,12 h,pH 7.4,37 °C,,165 µg/mL
CCn1cc(-c2nc(C)no2)c(=O)c2cc(F)c(N3CCC(C)CC3)cc21,shake flask,PBS,2 h,pH 7.4,25 °C,,< 1.2 µM

# Excerpt of the above:
Compound,technique,sample,time,pH,temperature,setting,solubility
CCCN(Cc1ccccc1OC)C(=O)c1cccc(Br)c1F,,aqueous buffer,12 h,pH 7.4,37 °C,,28 µg/mL
